# Measurements gathered from unrelated publications.
# Each numbered part is a random draw from the data of one study; scales do not carry over between parts.

# Block 1
# Target: Sal-like protein 4, full length isoform A (SALL4, Homo sapiens, UniProt Q9UJQ4, residues 1-1053)
# UniProt Q9UJQ4, sequence (whole entry, looked up): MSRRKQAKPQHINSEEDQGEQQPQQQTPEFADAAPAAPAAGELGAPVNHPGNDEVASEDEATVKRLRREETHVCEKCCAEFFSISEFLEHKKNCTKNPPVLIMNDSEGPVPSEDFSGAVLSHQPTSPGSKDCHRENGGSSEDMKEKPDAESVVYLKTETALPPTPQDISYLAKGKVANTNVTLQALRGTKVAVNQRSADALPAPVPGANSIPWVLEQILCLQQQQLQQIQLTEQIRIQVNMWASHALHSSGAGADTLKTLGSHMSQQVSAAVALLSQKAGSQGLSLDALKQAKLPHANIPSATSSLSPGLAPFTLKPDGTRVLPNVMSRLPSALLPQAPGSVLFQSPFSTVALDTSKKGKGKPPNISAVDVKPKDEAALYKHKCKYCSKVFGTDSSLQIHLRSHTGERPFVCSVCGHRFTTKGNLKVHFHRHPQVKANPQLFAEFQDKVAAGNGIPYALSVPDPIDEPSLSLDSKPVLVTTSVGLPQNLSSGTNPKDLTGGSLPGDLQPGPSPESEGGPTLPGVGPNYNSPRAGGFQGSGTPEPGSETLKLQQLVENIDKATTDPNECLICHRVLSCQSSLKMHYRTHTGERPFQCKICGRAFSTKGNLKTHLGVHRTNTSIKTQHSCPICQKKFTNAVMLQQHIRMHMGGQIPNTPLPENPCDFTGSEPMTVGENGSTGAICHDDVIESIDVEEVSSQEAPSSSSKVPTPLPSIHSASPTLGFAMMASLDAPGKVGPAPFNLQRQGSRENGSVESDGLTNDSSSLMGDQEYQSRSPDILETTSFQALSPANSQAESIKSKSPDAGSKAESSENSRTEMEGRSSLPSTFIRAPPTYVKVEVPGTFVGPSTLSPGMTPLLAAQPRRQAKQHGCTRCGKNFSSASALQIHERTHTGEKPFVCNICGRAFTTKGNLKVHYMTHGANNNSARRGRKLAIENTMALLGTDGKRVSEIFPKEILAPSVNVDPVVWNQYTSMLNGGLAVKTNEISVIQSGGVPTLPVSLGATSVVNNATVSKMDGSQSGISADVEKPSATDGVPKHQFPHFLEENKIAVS
# Technique: universal PBM
# Molecule type: double-stranded DNA, one strand shown
# Matrix: in vitro
# Tested at: 600 nM
# Notes: 8-mer, flanks averaged, mean of replicates
# Reading: higher = stronger binding
Strand,E-score
CGAATCTA,0.0883
TGCCCCAA,-0.00647
AACTGGTC,-0.0798
CCTGACGA,-0.0253
AGGCCGAG,-0.26
ATATGCCC,0.0212
ATAGTTTA,0.263
CCTACGCA,-0.164
GGTACCCA,-0.255
CAACGTAC,0.0103
ACCTTAGT,0.0516
GTTGGCCA,-0.215
ATCGGACA,-0.0554
CTGACCGA,-0.178
CTCATTAC,0.253
CTATTGAG,0.129
CGATAAGC,-0.0879
AAGCGCGT,-0.171
CCAGACCC,-0.314
ACCCTCTA,-0.0211
ACATGAGT,0.0543
AAGCGACG,-0.219
ATCATGCG,-0.00113
AGCTAAAC,-0.0317
GGCCACCC,-0.343

# Block 2
# Target: Histone acetyltransferase KAT6A, both winged helices, GST fusion (KAT6A, Homo sapiens, UniProt Q92794, residues 1-181)
# Technique: protein binding microarray
# Molecule type: double-stranded DNA, one strand shown
# Matrix: in vitro
# Tested at: not given
# Notes: 8-mer, flanks averaged, mean of 2 arrays, mostly near background
# Baseline: not given
# Reading: higher = stronger binding
# Construct (chain): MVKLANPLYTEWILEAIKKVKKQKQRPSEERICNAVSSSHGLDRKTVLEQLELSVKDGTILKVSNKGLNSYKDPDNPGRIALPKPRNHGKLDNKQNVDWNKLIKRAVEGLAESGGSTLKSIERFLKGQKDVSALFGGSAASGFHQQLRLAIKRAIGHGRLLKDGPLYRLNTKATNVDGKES
Strand,E-score
AGCTATTC,-0.106
ACGGGCTA,0.185
AGAGCACC,-0.0297
ACACATCA,-0.105
ATTGTCAG,-0.0199
GCTCGTGA,-0.0589
ATGCGGTG,0.149
ACATGGGA,-0.0698
AATTCAGT,-0.0695
CCGTACGA,0.13
TCCACGGA,0.237
ATGCGCAG,0.251
ACCAAAGG,-0.247
CGCGCTGA,0.298
CTTGGATC,-0.147
CCGTTATA,0.128
CTTTCGGA,0.0564
CACCTAGA,-0.134
AGCCTCTA,-0.21
ATCCCCAA,-0.254
CGGAAATC,0.11
GCTATATA,-0.055
GGGTACAC,0.0464

# Block 3
# Target: Centromere-binding protein 1, full length, His-tagged (CBF1, Saccharomyces cerevisiae, UniProt P17106, residues 1-351)
# UniProt P17106, sequence (whole entry, looked up): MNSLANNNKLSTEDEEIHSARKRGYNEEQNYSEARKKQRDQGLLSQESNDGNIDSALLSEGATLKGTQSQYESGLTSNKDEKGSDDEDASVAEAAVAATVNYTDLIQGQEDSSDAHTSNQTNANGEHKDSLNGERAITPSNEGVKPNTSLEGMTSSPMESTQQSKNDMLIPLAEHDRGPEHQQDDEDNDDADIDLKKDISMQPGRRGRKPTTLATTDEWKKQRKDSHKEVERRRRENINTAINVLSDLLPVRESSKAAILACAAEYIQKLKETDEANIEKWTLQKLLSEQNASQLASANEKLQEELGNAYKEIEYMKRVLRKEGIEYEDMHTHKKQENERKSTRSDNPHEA
# Technique: competition protein-binding microarray
# Molecule type: double-stranded DNA, one strand shown
# Matrix: in vitro
# Tested at: 2 µM
# Notes: whole 60-bp probe, lowest competitor level
# Together with: Pho4 competitor, 0.05 µM
# Reading: higher = stronger binding
# All sequences stand within: … GTCTTGATTCGCTTGACGCTGCTG
Strand,fluorescence intensity [a.u.]
TATGTGTCCAAGAGACACATGAGCCCAAAAAGGGTA,78
TGCAGAAGGGGACGATAATAAGACCAAATATTCTTG,65.2
CCAAACCGAGTTTGTCACGGCATATATACTCTGGCG,70.3
ATAAAACAACGGCCTCCCGTGCCGAATTACCTTCCT,106
AAAATATATCGCTAGCATGCGTGAGATATGGATAAG,89.8
CCGAGTCAAGAACATCACATGTTCATAATAACCGCA,1490
TATTGGTTTTAGAAACACGTTTCGAATCTTCAGTAT,147
AGTGCCACCTTAAAGCACGCAGTTACTGTTTACGCT,69
GAAGGAGTGAGGGACCCCGTGGGTACCGAACCCCGA,79.2
CCTTAACGCAATCGGTGTGTGATATTGCTCTAAGGT,74.6
CTAACGAAGGTTTGTCACCTCACTTACAAGCCAAGT,78.7
AAATTACTAAGTTGGTCCGTGGGTGACGCCGTATGA,65.6
TGCGTTCTATGCGAAAACGTGCTAATTTAATATATA,428
ACCTTTTGAATATATCATGTGTTTGTTCTGCTATCT,337
AAATTACTAAGTTTTCACGTGTCTTACCCCGTATGA,1020
AAAGCGGTAATTTGTAACGTGGGTGCAGATATCTAT,99.7
CGGGGTTAAGTTTGTACCGTGGGTGGCTTGCAGCAG,66.2
CTTTCCCGATCTTGTTACGTGGGTGTAGCACATTTG,80.5
ATTGTTTCCAGGCGTCATGTGTTTCCTTGATGATAT,274

# Block 4
# Target: RNA binding protein fox-1 homolog 2, RRM domain, GST-SBP tag (RBFOX2, Homo sapiens, UniProt O43251-10, residues 100-194)
# Technique: RNA Bind-n-Seq
# Molecule type: RNA
# Matrix: in vitro
# Tested at: 365 nM
# Notes: natural RNA segment, single round, ends assumed
# Baseline: no-protein control
# Reading: higher = stronger binding
# All sequences stand within: GGGAGUUCUACAGUCCGACGAUC … UGGAAUUCUCGGGUGCCAA
# Residues (chain): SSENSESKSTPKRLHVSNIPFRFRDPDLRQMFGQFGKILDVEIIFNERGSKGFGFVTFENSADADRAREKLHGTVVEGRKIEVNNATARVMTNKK
Strand,RBNS enrichment (R)
AUGUCCAAAGUGGAACUCUCCAUCUACCUCCCUCACAUGAACCUGUUCCUCUCUCAGGAUCUGUAUGUAAGUGAAAAGCAUCACCAUCUACCCAUUGGCUCAAGCAGAAA,0.556
UACCACCAUAGAGGAUGAAGACGCUAAAGCCCGGAAGCAGGAGAUCAUUAAGACCACGGAGCAGCUCAUCGAGGCCGUCAACAACGGUGACUUUGAGGCCUACGGGAAAA,0.227
GAUGGCCUCAUCUCCUGACUGUUUCAUGAACAACUCAUUCCUAGGUGUUAUUUGCAUGUGUGGGUUUCUCACAAGGCUCCCUCCCUUCCUCAGAAGGUUCAUCACGGAAU,20
UAAUUUUUAAAUAUACUUGAAAUAAAAUGAUUAAAAUGAAUUUUGGUCCAGUCACAUUACUUUGCACUUCUUCUUCUUUUUUUUCUUUUUGUACAAAAUUUUAAAGACUU,0.58
UGUGUGUAUUUGUUCACGAGCACAAUAGCUCCCAUGGGGGUCUGCACAUGCAGGUGUCCACCAGCAUAGCCUGCCUGAGAUAGUGUCAUUCCUGGUUCUGGGGAGAAGGG,1.17
CCUUGCAUUUCCUUCUUAACUCUCUGUUACACGUCAUUGAAACUACACUUUUUUGGUCUGUUUUUGUGCUAGACUGUAAGUUCCUUGGGGGCAGGGCCUUUGUCUGUCUC,0.493
GGGCUUCUUUGCUUUUCAAAUGUCCUAGCUCUGUAGUUCGUGCUGUCAUUGGUUUGAUUGUCUCACUGUCCUUCAUUCAGGGCUCUGAGUUUCCUUUGGGCUGCCUUUCU,0.296
AGACAGACUUCCGGAGCAGUGUCUAGGACAGUCACCACCUUGUAAAUGUUUACUUUGUUCCCUGUCUAUAUAUGCCUUUUGAAAAAUAAACUUGUACCUCAAACUCAAAC,0.487

# Repeated from above (block 1):
Strand,E-score
AGGCCGAG,-0.26
ATATGCCC,0.0212
ATAGTTTA,0.263
CCTACGCA,-0.164
